# Measurements pooled from the literature.
# Parts stem from different laboratories: compare values within a part only.
# Chain of UniProt Q9H2G2 (whole entry, looked up): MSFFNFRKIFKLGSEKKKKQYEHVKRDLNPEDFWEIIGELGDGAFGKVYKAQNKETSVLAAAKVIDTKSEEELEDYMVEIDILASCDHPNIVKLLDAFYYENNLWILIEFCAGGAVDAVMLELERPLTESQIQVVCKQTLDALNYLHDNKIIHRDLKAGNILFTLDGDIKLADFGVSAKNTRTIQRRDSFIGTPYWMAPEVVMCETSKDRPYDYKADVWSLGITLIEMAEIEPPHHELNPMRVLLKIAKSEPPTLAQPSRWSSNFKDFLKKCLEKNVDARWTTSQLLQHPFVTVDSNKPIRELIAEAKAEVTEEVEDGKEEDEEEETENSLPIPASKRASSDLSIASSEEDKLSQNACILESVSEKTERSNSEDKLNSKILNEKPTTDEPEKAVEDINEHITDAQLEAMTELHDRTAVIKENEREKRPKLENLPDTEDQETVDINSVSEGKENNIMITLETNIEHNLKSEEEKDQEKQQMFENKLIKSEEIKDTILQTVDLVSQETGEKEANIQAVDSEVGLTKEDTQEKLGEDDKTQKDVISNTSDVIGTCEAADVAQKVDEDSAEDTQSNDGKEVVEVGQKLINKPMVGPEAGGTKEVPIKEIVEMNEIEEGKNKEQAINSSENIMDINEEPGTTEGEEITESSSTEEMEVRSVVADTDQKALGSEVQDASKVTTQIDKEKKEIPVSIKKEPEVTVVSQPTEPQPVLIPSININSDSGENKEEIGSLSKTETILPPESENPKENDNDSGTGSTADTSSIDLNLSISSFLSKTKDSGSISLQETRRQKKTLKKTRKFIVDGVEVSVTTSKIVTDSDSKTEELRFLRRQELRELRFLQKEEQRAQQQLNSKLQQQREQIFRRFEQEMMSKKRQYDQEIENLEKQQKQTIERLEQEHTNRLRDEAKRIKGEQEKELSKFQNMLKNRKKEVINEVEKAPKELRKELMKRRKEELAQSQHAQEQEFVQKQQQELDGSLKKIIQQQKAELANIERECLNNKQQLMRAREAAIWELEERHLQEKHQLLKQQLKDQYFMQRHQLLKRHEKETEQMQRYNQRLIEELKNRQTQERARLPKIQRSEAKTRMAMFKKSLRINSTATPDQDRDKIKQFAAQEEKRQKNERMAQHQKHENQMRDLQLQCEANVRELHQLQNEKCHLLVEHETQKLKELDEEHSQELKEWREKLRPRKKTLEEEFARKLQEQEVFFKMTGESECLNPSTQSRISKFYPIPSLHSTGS
# Chain of UniProt P42336 (whole entry, unmodified, looked up): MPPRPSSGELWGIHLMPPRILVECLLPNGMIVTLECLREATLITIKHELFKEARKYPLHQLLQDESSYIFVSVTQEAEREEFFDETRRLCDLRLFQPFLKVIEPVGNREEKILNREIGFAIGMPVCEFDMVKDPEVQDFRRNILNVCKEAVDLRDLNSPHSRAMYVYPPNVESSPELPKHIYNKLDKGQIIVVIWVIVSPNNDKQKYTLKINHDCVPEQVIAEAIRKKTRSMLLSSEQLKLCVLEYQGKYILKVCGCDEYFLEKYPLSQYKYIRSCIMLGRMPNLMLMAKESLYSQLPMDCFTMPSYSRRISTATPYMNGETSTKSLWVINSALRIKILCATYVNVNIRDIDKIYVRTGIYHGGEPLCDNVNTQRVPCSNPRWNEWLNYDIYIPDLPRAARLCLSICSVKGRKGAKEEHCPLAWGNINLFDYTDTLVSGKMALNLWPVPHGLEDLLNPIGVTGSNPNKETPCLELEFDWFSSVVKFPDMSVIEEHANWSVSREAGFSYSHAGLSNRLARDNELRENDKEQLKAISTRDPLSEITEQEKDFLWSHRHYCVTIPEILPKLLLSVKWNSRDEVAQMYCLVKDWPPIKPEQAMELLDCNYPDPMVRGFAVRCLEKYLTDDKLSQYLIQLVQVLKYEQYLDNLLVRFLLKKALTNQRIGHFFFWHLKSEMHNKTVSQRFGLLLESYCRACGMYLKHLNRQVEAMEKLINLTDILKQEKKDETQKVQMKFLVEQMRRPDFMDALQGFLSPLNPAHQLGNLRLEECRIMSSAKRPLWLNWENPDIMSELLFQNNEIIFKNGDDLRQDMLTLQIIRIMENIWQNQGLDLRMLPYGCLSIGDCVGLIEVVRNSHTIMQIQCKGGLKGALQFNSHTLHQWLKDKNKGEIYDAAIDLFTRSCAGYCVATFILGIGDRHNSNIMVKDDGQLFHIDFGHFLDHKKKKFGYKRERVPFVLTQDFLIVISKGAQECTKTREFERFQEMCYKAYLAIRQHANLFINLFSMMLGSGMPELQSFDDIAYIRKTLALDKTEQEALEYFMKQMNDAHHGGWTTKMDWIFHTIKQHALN
# Chain of UniProt Q9H4B4 (whole entry, looked up): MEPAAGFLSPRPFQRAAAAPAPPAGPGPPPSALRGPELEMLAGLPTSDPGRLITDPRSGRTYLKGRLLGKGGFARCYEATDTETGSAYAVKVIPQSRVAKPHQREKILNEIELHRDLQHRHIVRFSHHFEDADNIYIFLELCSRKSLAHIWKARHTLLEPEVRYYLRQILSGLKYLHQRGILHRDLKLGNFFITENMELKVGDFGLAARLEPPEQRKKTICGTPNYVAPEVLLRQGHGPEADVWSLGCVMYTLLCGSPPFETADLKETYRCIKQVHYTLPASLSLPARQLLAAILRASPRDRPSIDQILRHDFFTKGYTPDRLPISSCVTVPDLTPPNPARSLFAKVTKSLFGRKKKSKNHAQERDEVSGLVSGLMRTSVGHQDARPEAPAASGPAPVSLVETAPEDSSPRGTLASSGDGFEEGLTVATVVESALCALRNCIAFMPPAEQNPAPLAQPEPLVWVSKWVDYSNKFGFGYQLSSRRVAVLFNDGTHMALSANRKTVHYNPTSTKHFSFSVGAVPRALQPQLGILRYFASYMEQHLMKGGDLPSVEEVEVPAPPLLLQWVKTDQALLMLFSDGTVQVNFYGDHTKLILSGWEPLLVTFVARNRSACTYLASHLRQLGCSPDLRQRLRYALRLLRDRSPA

# Block 1
# Target: Runt-related transcription factor 1, full length (RUNX1, Homo sapiens, UniProt Q01196-8, residues 1-480)
# Method: protein-binding microarray
# Molecule type: hairpin DNA
# Medium: in vitro
# Concentration: not given
# Setting: whole hairpin DNA, median over replicate spots
# Baseline: not given
# Reading: higher = stronger binding
Sequence,median fluorescence [a.u.]
GAGGCCTGTTGCGGCGGGCCTCCTGGCCCGCCGCAACAGGCCTCACACTC,2250
GAGGCCTGTTGCGCGTGGCCTCCTGGCCACGCGCAACAGGCCTCACACTC (5mC at 30),1730
GAGGCCTGGCGCGGTTGGCCTCCTGGCCAACCGCGCCAGGCCTCACACTC (5mC at 36),2430
GAGGCCTGTCGCGGGTGGCCTCCTGGCCACCCGCGACAGGCCTCACACTC (5mC at 30),1970
CTCAGTTGTGTGGGCTGGACTCCTGTCCAGCCCACACAACTGAGACACTC,1950
GAGGCCTGTTGTGGTTTGCCTCCTGGCAAACCACAACAGGCCTCACACTC,4970
GAGGCCTGTCGCCGTTGGCCTCCTGGCCAACGGCGACAGGCCTCACACTC,1690
GAGGCCCAACGGCAACAGCCTCCTGGCTGTTGCCGTTGGGCCTCACACTC (5mC at 10),1740

# Block 2
# Target: Calcium/calmodulin-dependent protein kinase type II subunit gamma (CAMK2G, Homo sapiens, UniProt Q13555)
# Chain of UniProt Q13555 (whole entry, looked up): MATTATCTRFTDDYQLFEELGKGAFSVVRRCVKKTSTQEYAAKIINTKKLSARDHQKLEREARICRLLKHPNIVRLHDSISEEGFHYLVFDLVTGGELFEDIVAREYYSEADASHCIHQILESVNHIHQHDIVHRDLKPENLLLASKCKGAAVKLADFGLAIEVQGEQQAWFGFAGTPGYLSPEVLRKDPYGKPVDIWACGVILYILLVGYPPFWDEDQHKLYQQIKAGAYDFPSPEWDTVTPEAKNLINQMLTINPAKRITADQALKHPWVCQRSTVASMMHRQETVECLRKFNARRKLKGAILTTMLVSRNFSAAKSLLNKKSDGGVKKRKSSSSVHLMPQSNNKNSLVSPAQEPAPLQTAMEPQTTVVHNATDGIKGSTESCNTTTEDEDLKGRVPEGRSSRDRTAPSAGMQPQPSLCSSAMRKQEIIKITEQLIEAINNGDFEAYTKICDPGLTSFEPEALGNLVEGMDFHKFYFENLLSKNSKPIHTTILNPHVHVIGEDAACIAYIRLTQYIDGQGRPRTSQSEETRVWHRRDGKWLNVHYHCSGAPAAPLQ
# Effect on: enzyme activity
# Action: inhibitor
# Concentration: 0.5 µM
# Baseline: control
SMILES,remaining activity [%]
O=C(CCCc1ccc(-c2ccccc2F)cc1)Nc1ccc(O)cc1,109
O=c1c2ccccc2[nH]c(=S)n1CCN1CCC(=C(c2ccc(F)cc2)c2ccc(F)cc2)CC1,97.9
Nc1ccc2ncnc(NCCc3ccc(Oc4ccccc4)cc3)c2c1,118
COc1cc2nccc(Oc3ccc(NC(=S)NC(=O)c4ccccc4C)cc3)c2cc1OC,103
Cc1ccc(NC(=O)c2ccc(CN3CCN(C)CC3)cc2)cc1Nc1nc(-c2cccnc2)cs1,98.6
Cc1cccc(-c2[nH]c(C(C)(C)C)nc2-c2ccc3c(c2)OCO3)n1,85.5
COc1ccc(CNC(=O)Nc2ncc([N+](=O)[O-])s2)cc1,102
CNC(=O)c1cc(Oc2ccc(NC(=O)Nc3ccc(Cl)c(C(F)(F)F)c3)cc2)ccn1,108
O=S(=O)(c1cccc2cnccc12)N1CCCNCC1,93.1
Nc1[nH]nc2nc3ccccc3nc12,108
O=C1NC(=O)C(c2cn(CCCn3ccnc3)c3ccccc23)=C1Nc1ccccc1,90.9
Cc1nc(-c2ccccc2)c(-c2ccncc2)o1,91.7
Cc1ccc(Nc2nccc(N(C)c3ccc4c(C)n(C)nc4c3)n2)cc1S(N)(=O)=O,106
O=C(Nc1cccc(Nc2cc(Nc3cccc(C(F)(F)F)c3)ncn2)c1)C1CC1,96.1
COc1ccc(C(=O)Nc2sc3c(c2C(N)=O)CCCC3)cc1OC,95.8

# Block 3
# Structure (SMILES): CCCCN(CCCC)C(=O)CN1C[C@@H](c2cc(OC)c3c(c2)OCO3)[C@H](C(=O)O)[C@H]1CC(C)(C)CCC
# Effect on: cell-free assay
# Method: competition with immobilised ligand
# Concentration: 1 µM
target,remaining binding
"EGFR (Homo sapiens, UniProt P00533, G719C)",100%
"PIK3CA (Homo sapiens, UniProt P42336, H1047L)",62.4%
"SLK (Homo sapiens, UniProt Q9H2G2)",92.5%
"MAP3K20 (Homo sapiens, UniProt Q9NYL2)",91.3%
"PLK3 (Homo sapiens, UniProt Q9H4B4)",93.5%

# Block 4
# Target: Sal-like protein 4, full length isoform B (SALL4, Homo sapiens, UniProt Q9UJQ4-2, residues 1-616)
# Method: universal PBM
# Molecule type: double-stranded DNA, one strand shown
# Medium: in vitro
# Concentration: not given
# Setting: 8-mer, flanks averaged, mean of replicates
# Reading: higher = stronger binding
Sequence,E-score
ACTTTCCC,-0.0568
GGAAGCAC,-0.0929
GGCTAGAC,-0.134
CGACATCG,-0.123
AAGACCCG,-0.239
AGCGTTGA,-0.157
CTCTCCCA,-0.0862
AACTCTCC,-0.129

# Excerpt of the above (block 2):
SMILES,remaining activity [%]
O=C(CCCc1ccc(-c2ccccc2F)cc1)Nc1ccc(O)cc1,109
Nc1ccc2ncnc(NCCc3ccc(Oc4ccccc4)cc3)c2c1,118
Cc1cccc(-c2[nH]c(C(C)(C)C)nc2-c2ccc3c(c2)OCO3)n1,85.5
CNC(=O)c1cc(Oc2ccc(NC(=O)Nc3ccc(Cl)c(C(F)(F)F)c3)cc2)ccn1,108
